# Measured values gathered from unrelated publications.
# Protocols differ between the studies behind these lines. ± gives the spread as reported.
# HCRTR1: Orexin/Hypocretin receptor type 1 (HCRTR1, Homo sapiens, UniProt O43613)
# UniProt O43613, sequence (whole entry, looked up): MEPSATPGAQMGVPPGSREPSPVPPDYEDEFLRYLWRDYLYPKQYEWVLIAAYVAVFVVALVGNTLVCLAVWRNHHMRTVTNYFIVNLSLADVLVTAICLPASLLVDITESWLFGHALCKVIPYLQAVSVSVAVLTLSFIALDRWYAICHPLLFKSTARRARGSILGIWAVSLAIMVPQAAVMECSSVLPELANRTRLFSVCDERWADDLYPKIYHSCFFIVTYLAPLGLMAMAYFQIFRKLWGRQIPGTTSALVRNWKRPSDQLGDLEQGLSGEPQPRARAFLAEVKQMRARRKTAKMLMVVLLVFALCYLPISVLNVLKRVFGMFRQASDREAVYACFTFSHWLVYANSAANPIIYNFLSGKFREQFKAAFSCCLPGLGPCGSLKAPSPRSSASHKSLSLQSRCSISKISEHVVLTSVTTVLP
Molecule,tested on,assay,conditions,scale,quantity,value
Cc1ccc(C(=O)Nc2ccc(OS(=O)(=O)c3ccc(F)cc3)cc2)cc1,HeLa,"cell growth or viability, MTT","100 µM, 24 h",,inhibition,7.7%
NC1(C(=O)O)CC2CCC1C2 (stereo not shown),EG7 wild-type and GFP-transduced (IDO-negative),tryptophan uptake,"sodium-free, uptake 3 min, together with: 3H-L-tryptophan",,Ki,12 µM
Cc1nn(-c2nc3c(F)cc(F)cc3s2)c(O)c1C(c1ccc(C(F)(F)F)cc1)c1c(C)nn(-c2nc3c(F)cc(F)cc3s2)c1O,RAW-ISG,"IFN reporter gene, inhibitor",together with: HT-DNA,,EC50,2670 nM
CC1(C(=O)Nc2ccc(OS(=O)(=O)c3ccccc3F)cc2)c2ccccc2-c2ccccc21,HeLa,"cell growth or viability, MTT","100 µM, 24 h",,inhibition,10.7%
COc1ccc(C2=N[C@@H](c3ccc(Cl)cc3)[C@@H](c3ccc(Cl)cc3)N2C(=O)N2CCNC(=O)C2)c(OC(C)C)c1,A2780,"cell proliferation, resazurin",72 h,,EC50,16800 nM
CCCCCCCCCCCCCCCCCCOc1ccccc1CC(=O)OCC[N+](CC)(CC)CC,58 cancer cell lines,,10 µM,,mean growth inhibition,75.5%
C=C[C@@]1(C)CC(=O)[C@]2(O)[C@@]3(C)[C@@H](O)CCC(C)(C)[C@@H]3[C@H](O)[C@H](OC(C)=O)[C@@]2(C)O1,CHO-KOR GloSensor,"cAMP level, agonist",,,EC90,2000 nM
COc1ccc(N(C)c2nc(Cl)ccc2[N+](=O)[O-])cc1OC,human tumour cell panel,"cell growth, SRB","range over compounds, cells",,GI50,15000 to 18000 nM
CN(Cc1cnc2nc(N)nc(N)c2n1)c1ccc(C(=O)N[C@@H](CCC(=O)O)C(=O)O)cc1,HBL-1,"cell viability, ATP luminescence","72 h, folate-depleted medium",,EC50,13 nM
COc1nn2cc(-c3ccc(Cl)cc3)nc2s1,washed human platelets,antagonist,"316 nM to 1 µM, 20 min preincubation, together with: 200 µM PAR4-AP",,platelet aggregation,inhibited
Cc1ccc(C(=O)Nc2ccc(OS(=O)(=O)c3ccc(OC(F)(F)F)cc3)cc2)cc1,HeLa,"cell growth or viability, MTT","100 µM, 24 h",,inhibition,17.7%
CCOC(=O)c1ccc(Cl)nc1N(C)c1ccc(OC)cc1,human tumour cell panel,"cell growth, SRB","range over compounds, cells",,GI50,190 to 1810 nM
COC(=O)c1cc(CN2CCN(C(=N)N)CC2)cc(C(=O)N2CCN(C(=O)c3ccc(C(=N)N)cc3)CC2)c1,mouse F9 cells,"CHRM4 and SCN3A gene activation, activator, RT-PCR, item: CHRM4 and SCN3A mRNA",,,lowest active concentration,0.5 to 1 µM
O=C(N[C@@H]1CCCc2c1[nH]c1ccc(Cl)cc21)c1ccccn1,virus-immortalized cell lines,cell growth,average over lines,,EC50,22 ± 4 nM
COC(=O)c1ccc(Cl)nc1N(C)c1ccc(OC)cc1,human tumour cell panel,"cell growth, SRB","range over compounds, cells",,GI50,200 to 260 nM
CNC(=O)c1cc(O[C@H]2CC[C@H](NC(=O)Nc3ccc(Cl)c(C(F)(F)F)c3)CC2)ccn1,ACHN,"cell viability, MTT",72 h,,EC50,7500 ± 700 nM
C#C[C@@]1(O)[C@@H](CO)O[C@@H](n2cc(I)c3c(N)ncnc32)[C@@H]1O,LOX IMVI,"cell growth or viability, SRB",48 h,,GI50,60 nM
CC(=O)N[C@@H](CSC(=O)[C@]1([C@@H](O)C(C)C)NC(=O)[C@H](C)[C@@H]1O)C(=O)O,human monocyte-derived macrophages,,"5 µM, 120 h",baseline: untreated,intracellular amyloid beta 40 retention,no effect
CCCCCC(=O)C=CC=O,rat DRG neurons,intracellular calcium rise,"3 µM, together with: AITC 50 µM",,responding neurons,~25%
COc1ccc(S(=O)(=O)Oc2ccc(NC(=O)c3ccccc3)cc2)cc1,HeLa,"cell growth or viability, MTT","100 µM, 24 h",,inhibition,7.1%
C=CCNc1c(O)cc2c(O)c1C[C@@H](C)C[C@H](OC)[C@H](O)[C@@H](C)/C=C(\C)[C@H](OC(N)=O)[C@@H](OC)/C=C\C=C(/C)C(=O)N2,NCI-H1650,"client protein degradation, degrader, item: HER2, mutant EGFR, Akt, cRaf","24 h, all four clients degraded",,EC50,10 to 46 nM
COc1ccc(N(C)c2nc(C(F)(F)F)ccc2CO)cc1,human tumour cell panel,"cell growth, SRB","range over compounds, cells",,GI50,200 to 3250 nM
COC(=O)c1ccc(NC(=O)CNNc2nc3ccccc3c(=O)n2-c2ccccc2)cc1,MCF7,annexin V/PI staining,"2.5 µM, 24 h, Late apoptosis",,apoptotic cells,13.8%
CC(=NNC(=S)NN=C(C(=NO)c1ccccc1)c1ccccc1)c1ccccc1C,MCF7,"Western blot, item: cleaved caspase-3","IC50 concentration, 24 h",baseline: untreated,relative protein level,2.37 ± 0.05
NS(=O)(=O)c1ccc(NC(=O)CNNc2nc3ccccc3c(=O)n2-c2ccccc2)cc1,MCF7,annexin V/PI staining,"2.5 µM, 24 h, Late apoptosis",,apoptotic cells,10.2%
CC[C@H](C)[C@H](NC(=O)[C@H](CCCCN)NC(=O)[C@@H](NC(=O)[C@H](CCC(N)=O)NC(=O)[C@@H](N)CCCNC(=N)N)[C@@H](C)CC)C(=O)N[C@@H](Cc1c[nH]c2ccccc12)C(=O)N[C@@H](Cc1ccccc1)C(=O)N[C@@H](CCC(N)=O)C(=O)N[C@@H](CC(N)=O)C(=O)N[C@@H](CCCNC(=N)N)C(=O)N[C@@H](CCCNC(=N)N)C(=O)N[C@@H](CCSC)C(=O)N[C@@H](CCCCN)C(=O)N[C@@H](Cc1c[nH]c2ccccc12)C(=O)N[C@@H](CCCCN)C(=O)N[C@@H](CCCCN)C(N)=O,SK-MEL-2,confocal Raman difference spectroscopy,"25 µM, room temperature, throughout cytoplasm scan region",,time to cytoplasmic detection,2 to 3 min
COc1cc2c(cc1OC)C(CCC1CCCCC1)N(CC(=O)NCc1ccccc1)CC2 (stereo not shown),HCRTR1,"calcium signal, antagonist, fluorescence",,,Kb,> 10 µM
CNC(=O)c1ccc(N2C(=S)N(c3ccc(C#N)c(C(F)(F)F)c3)C(=O)C2(C)C)cc1F,22Rv1,,"10 µM, 48 h, androgen-free",,PSA inhibition,no inhibition
S=C(NN=Cc1ccc(Cl)s1)Nc1ccccc1,HEL human lung fibroblasts,"altered cell morphology, microscopy",confluent cultures,,cytotoxic concentration,≥ 100 µM
COc1cc(-c2noc(-c3cccs3)c2C(F)(F)F)cc(OC)c1OC,MCF7,PI flow cytometry,"IC50, 48 h",,cells in G0/G1-phase,63.7%
COc1nn2cc(-c3ccc(C(F)(F)F)cc3)nc2s1,washed human platelets,antagonist,"316 nM to 1 µM, 20 min preincubation, together with: 200 µM PAR4-AP",,platelet aggregation,inhibited
CC1(C(=O)Nc2ccc(OS(=O)(=O)C(F)(F)F)cc2)c2ccccc2-c2ccccc21,HeLa,"cell growth or viability, MTT","100 µM, 24 h",,inhibition,32.4%
COc1nn2cc(-c3cc4cc(OC(F)(F)F)ccc4n3C)nc2s1,washed human platelets,antagonist,"316 nM to 1 µM, 20 min preincubation, together with: 200 µM PAR4-AP",,platelet aggregation,inhibited
NC(=O)c1ccc(-c2nc(-c3ccc4c(c3)OCO4)c(-c3ccccn3)[nH]2)cc1,C2C12 cells,"inhibitor, Western blot","10 µM, 1 h, together with: TGF-beta 5 ng/mL",,Smad2 phosphorylation,inhibited
CCCCCCCCCCCCCCCCCCOc1ccccc1CC(=O)OCC[N+]1(C)CCCC1,58 cancer cell lines,,10 µM,,mean growth inhibition,70.4%
tetraglycine,HLA-DRB1*11-restricted CD4 T-cell clone,TNF-alpha production,"MHC class II presentation, together with: peptide-loaded mature dendritic cells",,EC50,26 nM
fibrinogen,K562 expressing αMβ2,annexin V flow cytometry,"1 µM, 24 h, 37 °C",,apoptotic cells,3 ± 1%
CC(C)(C)NC(=O)[C@@H]1CN(Cc2cccnc2)CCN1C[C@@H](O)C[C@@H](Cc1ccccc1)C(=O)N[C@H]1c2ccccc2C[C@H]1O,PBMC,,"concentration not given, 30 min, 37 °C",baseline: DMSO,proteasome chymotrypsin-like activity,1.15 fold
CNC(=O)c1ccc(N2C(=S)N(c3cnc(C#N)c(C(F)(F)F)c3)C(=O)C23CCC3)cc1F,LNCaP-abl,"cell proliferation, inhibitor","72 h, up to 100 µM tested",,EC50,> 100000 nM
bacitracin,human monocyte-derived macrophages,,"1 mg/mL, 120 h",baseline: untreated,intracellular amyloid beta 40 retention,increased
COc1cc2c(cc1OC)C(Cc1cc(OC)c(OC)c(OC)c1)N(CC(=O)NCc1ccccc1)CC2 (stereo not shown),HCRTR1,"calcium signal, antagonist, fluorescence",,,Kb,> 10 µM
CC/C(=N\NC(=O)NCc1cccc(O)c1)c1ccc(O)c(C)c1O,SK-OV-3,"cell growth, ATP assay, 3D culture",4 days,,EC50,3510 ± 260 nM
CO[C@H]1C[C@@H]2CC[C@@H](C)[C@@](O)(O2)C(=O)C(=O)N2CCCC[C@H]2C(=O)O[C@H]([C@H](C)C[C@@H]2CC[C@@H](O)[C@H](OC)C2)CC(=O)[C@H](C)/C=C(\C)[C@@H](O)[C@@H](OC)C(=O)[C@H](C)C[C@H](C)/C=C/C=C/C=C/1C,HT-29,"cell growth or viability, SRB",72 h,,GI50,4200 nM
angiostatin,K562 expressing αMβ2,annexin V flow cytometry,"1 µM, 24 h, 37 °C",,apoptotic cells,55 ± 10%
CN1CCN(c2ccc(Nc3ncc4cc(C#N)c(=O)n(C5CCCC5)c4n3)cc2)CC1,"primary patient MCL, ibrutinib-sensitive and -resistant",Annexin V,24 h,,apoptosis onset concentration,500 nM
C#C[C@@]1(O)[C@@H](CO)O[C@@H](n2cc(Cl)c3c(N)ncnc32)[C@@H]1O,LOX IMVI,"cell growth or viability, SRB",48 h,,GI50,59 nM

# For quick reference, copied from above:
Molecule,tested on,assay,conditions,scale,quantity,value
NS(=O)(=O)c1ccc(NC(=O)CNNc2nc3ccccc3c(=O)n2-c2ccccc2)cc1,MCF7,annexin V/PI staining,"2.5 µM, 24 h, Late apoptosis",,apoptotic cells,10.2%
CC[C@H](C)[C@H](NC(=O)[C@H](CCCCN)NC(=O)[C@@H](NC(=O)[C@H](CCC(N)=O)NC(=O)[C@@H](N)CCCNC(=N)N)[C@@H](C)CC)C(=O)N[C@@H](Cc1c[nH]c2ccccc12)C(=O)N[C@@H](Cc1ccccc1)C(=O)N[C@@H](CCC(N)=O)C(=O)N[C@@H](CC(N)=O)C(=O)N[C@@H](CCCNC(=N)N)C(=O)N[C@@H](CCCNC(=N)N)C(=O)N[C@@H](CCSC)C(=O)N[C@@H](CCCCN)C(=O)N[C@@H](Cc1c[nH]c2ccccc12)C(=O)N[C@@H](CCCCN)C(=O)N[C@@H](CCCCN)C(N)=O,SK-MEL-2,confocal Raman difference spectroscopy,"25 µM, room temperature, throughout cytoplasm scan region",,time to cytoplasmic detection,2 to 3 min
COc1cc2c(cc1OC)C(CCC1CCCCC1)N(CC(=O)NCc1ccccc1)CC2 (stereo not shown),HCRTR1,"calcium signal, antagonist, fluorescence",,,Kb,> 10 µM
